Measured values gathered from unrelated publications.
Lines come from different studies, so protocols differ. Several values in a cell are separate wells, animals, samples, runs or records. ± marks the error that the study gave.

CC(=O)O[C@H]1C(=O)[C@@]2(C)[C@H]([C@H](OC(=O)c3ccccc3)[C@]3(O)C[C@H](OC(=O)[C@H](O)[C@@H](NC(=O)c4ccccc4)c4ccccc4)C(C)=C1C3(C)C)[C@]1(OC(C)=O)CO[C@@H]1C[C@@H]2O has a TGI of 0.03 µM (HL-60(TB)).
Under “log2 fold change”, Cc1cc(Nc2ncc(Cl)c(Nc3ccccc3S(=O)(=O)C(C)C)n2)c(OC(C)C)cc1C1CCNCC1 is recorded as -2.56 (CLB-BAR; phosphoproteomics LC-MS/MS, refers to: TNKS1BP1 phosphorylation; 200 nM, 60 min; reference: untreated).
The inhibition of COc1ccc(-c2nc(N3CCOCC3)c3sc(CN(C)c4ncc(C(=O)NO)cn4)cc3n2)cn1 is reported as 94.8% (BT-16; cell viability, MTT; 10 µM, 72 h).
Under maximal efficacy, CC(C)CN(C[C@@H](O)[C@H](Cc1ccccc1)NC(=O)O[C@H]1CCOC1)S(=O)(=O)c1ccc(N)cc1 is recorded as “inactive” (ΔE-expressing cells; ΔE mislocalization, high-content imaging).
For Clc1nc(NCc2ccco2)c2[nH]cnc2n1, the ΔPSI was -0.297 (iPSC-derived cardiomyocytes; RNA-seq, refers to: BPTF chr17 exon ending 67963506; unit not given; reference: DMSO minus compound).
O=C(/C=C/C=C/C=C/C1CCCCC1)NC1=C[C@@](O)(/C=C/C=C/C=C/C(=O)NC2=C(O)CCC2=O)[C@@H]2O[C@@H]2C1=O gave a GI50 of 19.5 µM (LoVo; cell growth, CellTiter-Glo; 78 h).
With CCn1cc(-c2cc(Cn3ccnc3)cc3c2CCN([C@H](c2cc(OC)ccn2)C2CC2)C3=O)c(C(F)(F)F)n1 the EC50 was 9.35 µM (JVM-2; cell growth, inhibitor; 120 h).
For COc1ccc(-n2nc(C(C)=O)s/c2=N\N=C(/C)c2ccc(NC(=O)c3ccccc3)cc2)cc1, the viability was 2.5% (MCF7; 5 µM).
Under “cell proliferation reduction”, COc1cc([C@@H]2c3cc4c(cc3[C@@H](O[C@@H]3O[C@@H]5CO[C@@H](C)O[C@H]5[C@H](O)[C@H]3O)[C@H]3COC(=O)[C@H]23)OCO4)cc(OC)c1O is recorded as 83.8% (HepG2 spheroids; flow cytometry, refers to: Ki67; 1.7 µM, 96 h; reference: solvent control).
CSc1cc(Oc2ccnc3[nH]c(=O)cnc23)ccc1NC(=O)Nc1cc(C(C)(C)C)nn1-c1ccccc1 — result for “phospho-Src family Tyr416/total ratio”: 0.23 (patient-derived cell line clone B; RPPA; 1 µM, 4 h; reference: DMSO).
Nc1ncnc2c1ncn2[C@@H]1O[C@H](CO)[C@@H](O)[C@H]1O gave a viability of 83.7 a.u. and 81.2 a.u. and 75.7 a.u. (unstimulated human T cells; 100 µM, 72 h; higher = more viable cells).
The GI50 of CCOc1cc(-c2nncn2C)ccc1Nc1ncc2cc(C)nc(N3CC(C)(C#N)C3)c2n1 is reported as 0.28 µM (CAL-51; cell growth; 72 h).
Cn1cc(-c2ccc(-c3cncc(Cl)c3N3CCC4(CCNC4=O)CC3)cc2)cn1: “log2 fold change” 2.1 (COLO 205; gene expression, microarray, refers to: DDB2 mRNA; concentration not given, 2 h; reference: untreated cells).
Cc1cccc(-c2[nH]c(CNc3ccccc3F)nc2-c2ccc3ncnn3c2)n1 has a viability of 17% (bone marrow CD138+ myeloma cells; XTT; 1 µM, mean of three patients).
CCn1cc(-c2cc(Cn3ccoc3=N)cc3c2CCN([C@@H](C)c2cc(OC)ccn2)C3=O)c(C(F)(F)F)n1 gave an EC50 of 1.19 µM (JVM-2; cell growth, inhibitor; 120 h).
COC(=O)[C@]12CCC(C)(C)C[C@H]1[C@H]1C(=O)C=C3[C@@]4(C)C=C(C#N)C(=O)C(C)(C)[C@@H]4CC[C@@]3(C)[C@]1(C)CC2 has an inhibition of 91.6% (BT-16; cell viability, MTT; 10 µM, 72 h).
COC(=O)[C@]12CCC(C)(C)C[C@H]1[C@H]1C(=O)C=C3[C@@]4(C)C=C(C#N)C(=O)C(C)(C)[C@@H]4CC[C@@]3(C)[C@]1(C)CC2 — result for “point of departure”: 0.155 µM (HepG2; refers to: phospholipidosis; 24 h, distribution mode 2).
COc1cc(/C=C/C(=O)N2CCC=CC2=O)cc(OC)c1OC has a mRNA level of 82.1 ± 8.3% (MDA-MB-468; quantitative RT-PCR, refers to: ANPEP; 30 µM, 8 h; reference: untreated cells).
Cc1cc(OCc2nnc(SC3CCCC3)n2-c2cccnc2)ccc1-c1ccc(S(C)(=O)=O)cc1 has an inhibition of 93.8% (BT-16; cell viability, MTT; 10 µM, 72 h).
CCc1cnc(N2CCC(c3nc(COc4ccc(-n5cnnn5)cc4)cs3)CC2)nc1 — result for “normalized enrichment score”: -1.08 (HEK-293T; RNA-seq GSEA, refers to: HALLMARK_ESTROGEN_RESPONSE_LATE; concentration not given; direction not given).

Excerpt of the above:
COC(=O)[C@]12CCC(C)(C)C[C@H]1[C@H]1C(=O)C=C3[C@@]4(C)C=C(C#N)C(=O)C(C)(C)[C@@H]4CC[C@@]3(C)[C@]1(C)CC2 has an inhibition of 91.6% (BT-16; cell viability, MTT; 10 µM, 72 h).
Cc1cccc(-c2[nH]c(CNc3ccccc3F)nc2-c2ccc3ncnn3c2)n1 has a viability of 17% (bone marrow CD138+ myeloma cells; XTT; 1 µM, mean of three patients).
O=C(/C=C/C=C/C=C/C1CCCCC1)NC1=C[C@@](O)(/C=C/C=C/C=C/C(=O)NC2=C(O)CCC2=O)[C@@H]2O[C@@H]2C1=O gave a GI50 of 19.5 µM (LoVo; cell growth, CellTiter-Glo; 78 h).
